Results gathered from unrelated publications.
Each line is one published result; not all experiments were run side by side.
Organism: Leishmania donovani

| SMILES | test | system | setting | how to read | quantity | result |
| --- | --- | --- | --- | --- | --- | --- |
| CC(C)(C)OC(=O)/C=C/c1ccc(O)c(O)c1 | – | MHOM/ET/67/L-82 | concentration not given, axenic amastigotes, active if IC50 < 10 µM | – | antileishmanial activity | active |
| CC/C(=C\c1ccc(OCC(=O)NC(C(=O)N2CCOCC2)c2ccccc2)cc1)[N+](=O)[O-] (stereo not shown) | – | macrophages, intracellular amastigotes | 3.125 µM, 72 h | – | inhibition | 36.7% |
| CCOC(=O)C(NC(=O)CN1C(=O)N/C(=C\c2ccc3c(c2)OCO3)C1=O)C(C)C (stereo not shown) | parasite growth | – | 24 h, intracellular, amastigote | – | IC50 | > 10 µM |
| CC(C)OC(=O)/C=C/c1ccc(O)c(O)c1 | – | MHOM/ET/67/L-82 | concentration not given, axenic amastigotes, active if IC50 < 10 µM | – | antileishmanial activity | active |
| CCCCCCCCCC1CC2CCCC3CC(CCCCCCCCC)NC(=N1)N23 (stereo not shown) | parasite growth, Alamar Blue | promastigotes | – | – | IC90 | 12.8 µM |
| Cc1cc2[nH]c(C(=O)Nc3ccccc3C)c(CN3CCOCC3)c2s1 | parasite growth | THP-1 | 80 µM, intracellular, amastigote | – | inhibition | 39% |
| CCOC(=O)C(NC(=O)CN1C(=O)/C(=C/c2ccc3c(c2)OCO3)SC1=S)C(C)C (stereo not shown) | parasite growth | – | 72 h, intracellular, amastigote | – | IC50 | 0.31 µM |
| CCCCCCCCCC1CC2CCC3CC(CCCCCCCCC)NC(=N1)N23 (stereo not shown) | parasite growth, Alamar Blue | promastigotes | – | – | IC90 | 11.3 µM |
| CCOC(=O)C(C)NC(=O)CN1C(=O)S/C(=C\c2ccc(F)cc2)C1=O (stereo not shown) | parasite growth, resazurin | – | promastigote | – | IC50 | > 100 µM |
| CC/C(=C\c1ccc(OCC(=O)NC(C(=O)N2CCSCC2)c2ccccc2)cc1)[N+](=O)[O-] (stereo not shown) | – | THP-1, intracellular amastigotes in macrophages | – | baseline: CC50 THP-1 over IC50 amastigotes | selectivity ratio | 4.65 |
| CCCCOC(=O)/C=C/c1ccc(O)c(O)c1 | – | MHOM/ET/67/L-82 | – | baseline: IC50 L6 cells over IC50 amastigotes | selectivity index | 20 |
| CCOC(=O)C(C)NC(=O)CN1C(=O)N/C(=C\c2ccc(C)cc2)C1=O (stereo not shown) | parasite growth, resazurin | – | promastigote | – | IC50 | > 100 µM |
| CC(C)(C)OC(=O)/C=C/c1ccc(O)c([N+](=O)[O-])c1 | – | MHOM/ET/67/L-82 | – | baseline: IC50 L6 cells over IC50 amastigotes | selectivity index | 96 |
| CCOC(=O)CNC(=O)CN1C(=O)S/C(=C\c2ccc(C)cc2)C1=O | parasite growth | – | 72 h, intracellular, amastigote | – | IC50 | > 10 µM |
| CCCCOC(=O)/C=C/c1ccc(O)c([N+](=O)[O-])c1 | – | MHOM/ET/67/L-82 | – | baseline: IC50 L6 cells over IC50 amastigotes | selectivity index | 355 |
| CC(=O)Oc1ccc(Cn2ccc(=O)[nH]c2=O)cc1C1OC(c2ccccc2)=NN1C(C)=O (stereo not shown) | parasite growth, SYBR Green | RAW264.7 | intracellular, amastigote | – | IC50 | > 100 µM |
